Assay results pooled from the literature.
Compare with care: the assays were run in different laboratories. Values joined by “and” are separate records of one study, mostly repeats; a detail may differ. ± gives the spread as reported.

CNCCOC(c1ccccc1)c1ccccc1
IC50 (Marburg marburgvirus; viral entry; HIV pseudovirions with MARV glycoprotein): 42.5 ± 14.9 µM

O=c1[nH]c(Nc2cc(Cl)cc(Cl)c2)nc2cc(Cl)ccc12
IC50 (Middle East respiratory syndrome-related coronavirus; viral replication; Vero): < 1.1 µM

NC(=O)c1ncn([C@@H]2O[C@H](CO)[C@@H](O)[C@H]2O)n1
IC50 (Western equine encephalitis virus; replicon replication): 16 µM

CN1CCN(C(c2ccccc2)c2ccc(Cl)cc2)CC1 (centres unmarked)
IC50 (Ebola virus Zaire; HIV/EBOV pseudovirion entry; A549; 48 h): 2.7 ± 1.2 µM

O=C1Nc2ccccc2/C1=C1\Nc2ccccc2\C1=N/O
IC50 (SARS-CoV-2 Delta; viral replication, cell-based): 9.99 µM

CC[C@H](C)[C@H](NC(=O)[C@H](CC(C)C)NC(=O)[C@H](Cc1c[nH]c2ccccc12)NC(=O)[C@H](CCC(N)=O)NC(=O)[C@@H](NC(=O)[C@H](Cc1ccccc1)NC(=O)[C@H](C)NC(=O)[C@H](CCCCNC(=O)COCCOCCNC(=O)COCCOCCNC(=O)CC[C@H](NC(=O)CCCCCCCCCCCCCCCCCCC(=O)O)C(=O)O)NC(=O)[C@H](CCC(N)=O)NC(=O)[C@H](C)NC(=O)[C@@H](NC(=O)[C@H](CCCCN)NC(=O)[C@H](CC(=O)O)NC(=O)[C@H](CC(C)C)NC(=O)C(C)(C)NC(=O)[C@@H](NC(=O)[C@H](CO)NC(=O)[C@H](Cc1ccc(O)cc1)NC(=O)[C@H](CC(=O)O)NC(=O)[C@H](CO)NC(=O)[C@@H](NC(=O)[C@H](Cc1ccccc1)NC(=O)[C@@H](NC(=O)CNC(=O)[C@H](CCC(=O)O)NC(=O)C(C)(C)NC(=O)[C@@H](N)Cc1ccc(O)cc1)[C@@H](C)O)[C@@H](C)O)[C@@H](C)CC)[C@@H](C)CC)C(C)C)C(=O)N[C@@H](C)C(=O)NCC(=O)NCC(=O)N1CCC[C@H]1C(=O)N[C@@H](CO)C(=O)N[C@@H](CO)C(=O)NCC(=O)N[C@@H](C)C(=O)N1CCC[C@H]1C(=O)N1CCC[C@H]1C(=O)N1CCC[C@H]1C(=O)N[C@@H](CO)C(N)=O
treatment-emergent adverse events (healthy human; 1.0 mg, single ascending dose): 20%

Nc1ncnc2c1ncn2[C@H]1C[C@H](O)[C@@H](COP(=O)(O)OP(=O)(O)OP(=O)(O)O)O1
kcat (Gag-Pol polyprotein, reverse transcriptase (gag-pol, Human immunodeficiency virus type 1 group M subtype B, UniProt P04585, K653R); substrate; K66R mutant, with: G:A mismatched primer template): 0.0498 ± 0.0125 s⁻¹

COc1cc2c(OC)c3c(c(-c4ccc5c(c4)OCO5)c2cc1OC)C(=O)OC3
IC50 (VSV pseudotyped with Ebola virus GP; viral entry, measured: GFP): 0.171 ± 0.0402 µM

NC(=O)c1ncn([C@@H]2O[C@H](COP(=O)(O)O)[C@@H](O)[C@H]2O)n1
IC50 (Severe acute respiratory syndrome coronavirus; viral replication, inhibitor; Vero 76): > 30 µM

CCN(CCO)CCCC(C)Nc1ccnc2cc(Cl)ccc12 (centres unmarked)
IC50 (SARS-CoV-2 Delta; viral replication, cell-based; 48 h): > 100 µM

CC(C)CCCCCCCCCCCCCCCc1cc(O)cc(O)c1
IC50 (Bacillus anthracis; 34F2): > 200 µM

COc1cc2c(O)c3c(c(-c4ccc5c(c4)OCO5)c2cc1OC)C(=O)N(N)C3
IC50 (VSV pseudotyped with Ebola virus GP; viral entry, measured: GFP; HeLa): 3.94 ± 0.604 µM

oseltamivir carboxylate
IC50 (Influenza A virus; enzyme activity, inhibitor; avian A(H9N2); median over viruses): 0.00049 ± 8e-05 µM

N=C(N)Nc1ccc(C(=O)Oc2ccc3cc(C(=N)N)ccc3c2)cc1
IC50 (VSVΔG pseudotyped with SARS-CoV-2 S; pseudovirus infection; Alpha; tested range 0.3125 to 40 µM): 0.93 µM

CCOC(=O)C1=C[C@@H](OC(CC)CC)[C@H](NC(C)=O)[C@@H](N)C1
IC50 (influenza A virus H7N9; viral replication): 0.0137 µM

CC(C)OC(=O)[C@@H](N)Cc1ccc(OP2(=O)CO[C@@H](Cn3ccc(N)nc3=O)CO2)cc1 (some centres unmarked)
IC50 (cowpox virus; viral replication): 40 µM

CN(C)CCOC(C)(c1ccccc1)c1ccccn1 (centres unmarked)
IC50 (Ebola virus Zaire; HIV/EBOV pseudovirion entry; A549; 48 h): 14.7 ± 2.1 µM

CCOc1c2c(c(-c3ccc4c(c3)OCO4)c3cc(OC)c(OC)cc13)C(=O)OC2
IC50 (VSV pseudotyped with Ebola virus GP; viral entry, measured: GFP): 0.112 ± 0.0147 µM

COC(=O)C(N)Cc1ccc(OP2(=O)COC(Cn3ccc(N)nc3=O)CO2)cc1 (centres unmarked)
IC50 (cowpox virus; viral replication): 35 µM

COc1cc2c(OC(C)=O)c3c(c(-c4ccc5c(c4)OCO5)c2cc1OC)C(=O)N(CCO)C3=O
IC50 (VSV pseudotyped with Ebola virus GP; viral entry, measured: GFP; HeLa): 5.4 ± 2.92 µM

O=C1c2c(O)c(=O)ccn2N([C@@H]2c3ccccc3SCc3c2ccc(F)c3F)[C@@H]2COCCN12
IC50 (influenza A virus H5N1; viral replication): < 3e-05 µM

CCOc1ccc2cc(C(=O)Nc3nc4ccccc4[nH]3)[nH]c2c1
IC50 (SARS-CoV-2 pseudovirus; viral entry; HeLa-ACE2, Delta spike): > 10 µM

CN1CCN(C(=O)c2cc3cc(Cl)ccc3[nH]2)CC1
IC50 (Marburg virus; HIV/MARV pseudovirion entry; A549; 48 h): 20.6 ± 7.9 µM

COC(=O)[C@@H](N)Cc1ccc(OP2(=O)CO[C@@H](Cn3cnc4c(N)ncnc43)CO2)cc1 (some centres unmarked)
IC50 (vaccinia virus; viral replication): 2 µM and 3 µM

CC(C)(C)c1ccc(CN2CCN(C(c3ccccc3)c3ccc(Cl)cc3)CC2)cc1 (centres unmarked)
IC50 (Marburg virus; HIV/MARV pseudovirion entry; A549; 48 h): 12.7 ± 11.5 µM

COC(=O)[C@@H](N)COP1(=O)CO[C@@H](Cn2cnc3c(N)ncnc32)CO1 (some centres unmarked)
IC50 (cowpox virus; viral replication): 20 µM

CNC(=O)[C@@H](NC(=O)[C@H](CC(C)C)[C@H](O)C(=O)NO)C(C)(C)C
remaining fibrinogen γ chain (human fibrinogen; SDS-PAGE; Daboia russelii; concentration not given, unit not given, with: PB venom; reference: untreated fibrinogen): 0.54

COC(=O)[C@@H](N)[C@@H](C)OP1(=O)CO[C@@H](Cn2cnc3c(N)ncnc32)CO1 (some centres unmarked)
IC50 (cowpox virus; viral replication): 20 µM

Cc1ccc(C(C)Nc2nc(N3CCNCC3)nc3ccccc23)cc1 (centres unmarked)
maximum response (SARS-CoV-2; cytopathic effect; USA_WA1/2020; retest 8-point): 90.8%

CC[C@H](C)[C@H](NC(=O)[C@H](CC(C)C)NC(=O)[C@H](CO)NC(=O)[C@H](Cc1c[nH]cn1)NC(=O)[C@@H](NC(=O)[C@H](CC(C)C)NC(=O)[C@H](CO)NC(=O)[C@@H](NC(=O)[C@H](Cc1ccc(O)cc1)NC(=O)[C@H](CC(N)=O)NC(=O)[C@H](CC(N)=O)NC(=O)[C@@H](NC(=O)[C@H](CCC(=O)O)NC(=O)[C@H](CCCNC(=N)N)NC(=O)[C@H](CC(=O)O)NC(=O)[C@H](Cc1c[nH]c2ccccc12)NC(=O)[C@H](CCC(=O)O)NC(=O)[C@H](CCSC)NC(=O)[C@H](Cc1c[nH]c2ccccc12)NC(C)=O)[C@@H](C)CC)[C@@H](C)O)[C@@H](C)CC)C(=O)N[C@@H](CCC(=O)O)C(=O)N[C@@H](CCC(=O)O)C(=O)N[C@@H](CO)C(=O)N[C@@H](CCC(N)=O)C(=O)N[C@@H](CC(N)=O)C(=O)N[C@@H](CCC(N)=O)C(=O)N[C@@H](CCC(N)=O)C(=O)N[C@@H](CCC(=O)O)C(=O)N[C@@H](CCCCN)C(=O)N[C@@H](CC(N)=O)C(=O)N[C@@H](CCC(=O)O)C(=O)N[C@@H](CCC(N)=O)C(=O)N[C@@H](CCC(=O)O)C(=O)N[C@@H](CC(C)C)C(=O)N[C@@H](CC(C)C)C(=O)NCC(=O)N[C@@H](CO)C(=O)NCC(=O)N[C@@H](CSCC(=O)O[C@H]1CC[C@@]2(C)C(=CC[C@H]3[C@@H]4CC[C@H]([C@H](C)CCCC(C)(C)O)[C@@]4(C)CC[C@@H]32)C1)C(N)=O
Kd (membrane binding, di-8-ANEPPS dipole potential; POPC:cholesterol:sphingomyelin LUVs; ratio 1:1:1): 7.1 ± 5.3 µM

Cn1cnc(Cn2c(=O)[nH]/c(=N\c3cc4cn(C)nc4cc3Cl)n(Cc3cc(F)c(F)cc3F)c2=O)n1
treatment-related TEAE, Severe severity (human, mild renal impairment; oral, 375 mg): 0%

Cn1cc(CN2CCCC(COc3ccccc3C(=O)N3CCCCC3)C2)c2ccccc21 (centres unmarked)
maximum response (SARS-CoV-2; cytopathic effect; USA_WA1/2020; round 1, 5-point): 83.3%

CC(C)CNC(=O)[C@@H](N)Cc1ccc(OP2(=O)CO[C@@H](Cn3cnc4c(N)ncnc43)CO2)cc1 (some centres unmarked)
IC50 (cowpox virus; viral replication): 7 µM

CC(C)CCCCCCCCCCCCc1cc(O)cc(O)c1
IC50 (Bacillus anthracis; 34F2): 32.5 µM

CC(C)(C)NC(=O)[C@@H](N)Cc1ccc(OP2(=O)CO[C@@H](Cn3ccc(N)nc3=O)CO2)cc1 (some centres unmarked)
IC50 (vaccinia virus; viral replication): 10 µM

COc1cc2c(O)c3c(c(-c4ccc5c(c4)OCO5)c2cc1OC)C(=O)OC3
IC50 (VSV pseudotyped with Marburg virus GP; viral entry, measured: GFP): 1.77 ± 0.08 µM

OCCOCCN1CCN(C(c2ccccc2)c2ccc(Cl)cc2)CC1 (centres unmarked)
IC50 (Marburg virus; HIV/MARV pseudovirion entry; A549; 48 h): 6.1 ± 2.8 µM

Cc1cc(COc2ccc([C@]3(N)CCN([C@H](CC(C)C)C(=O)NO)C3=O)cc2)c2ccccc2n1
IC50 (SARS-CoV-2 pseudovirus; viral entry; HeLa-ACE2, Delta spike): > 10 µM

CCCCCCCC/C=C\CCCCCCCC(=O)O
IC50 (Human immunodeficiency virus 1; viral entry, inhibitor; Calu-3; pseudovirus): 25 µM

COc1cc2c(O)c3c(c(-c4ccc5c(c4)OCO5)c2cc1OC)C(=O)N(/N=C/c1cccnc1)C3
IC50 (VSV pseudotyped with Ebola virus GP; viral entry, measured: GFP): 4.48 ± 0.467 µM

CN(C)CCOC(C)(c1ccccc1)c1ccc(Cl)cc1 (centres unmarked)
IC50 (Marburg virus; HIV/MARV pseudovirion entry; A549; 48 h): 6.2 ± 0.8 µM

CC(C)CNC(=O)[C@@H](N)Cc1ccc(OP(=O)(O)CO[C@H](CO)Cn2cnc3c(N)ncnc32)cc1
IC50 (vaccinia virus; viral replication): 0.5 µM

COc1c(C)c2c(c(O)c1C/C=C(\C)CCC(=O)O)C(=O)OC2
IC50 (Severe acute respiratory syndrome coronavirus; viral replication, inhibitor; Vero 76): > 30 µM

Nc1ncnc2c([C@@H]3N[C@H](CO)[C@@H](O)[C@H]3O)c[nH]c12
inhibition (Zaire ebolavirus; viral replication, inhibitor; human Macrophage; 3.1 µM): 0%

Cc1cccc(NC(=O)CS(=O)(=O)c2nc(-c3ccccc3)cn2-c2ccc(Cl)cc2)c1C
IC50 (VSVΔG pseudotyped with SARS-CoV-2 S; pseudovirus infection; Alpha; tested range 0.3125 to 40 µM): 0.4 µM

NC(=O)c1ncn([C@@H]2O[C@H](CO)[C@@H](O)[C@H]2O)n1
IC50 (Severe acute respiratory syndrome coronavirus; viral replication, inhibitor; Vero 76): 210 µM

COc1cc2c(O)c3c(c(-c4ccc5c(c4)OCO5)c2cc1OC)C(=O)N(/N=C/c1ccc(Cl)cc1)C3
IC50 (VSV pseudotyped with Ebola virus GP; viral entry, measured: GFP): 1.17 ± 0.518 µM

CC[C@H](C)[C@H](NC(=O)[C@H](CC(C)C)NC(=O)[C@H](Cc1c[nH]c2ccccc12)NC(=O)[C@H](CCC(N)=O)NC(=O)[C@@H](NC(=O)[C@H](Cc1ccccc1)NC(=O)[C@H](C)NC(=O)[C@H](CCCCNC(=O)COCCOCCNC(=O)COCCOCCNC(=O)CC[C@H](NC(=O)CCCCCCCCCCCCCCCCCCC(=O)O)C(=O)O)NC(=O)[C@H](CCC(N)=O)NC(=O)[C@H](C)NC(=O)[C@@H](NC(=O)[C@H](CCCCN)NC(=O)[C@H](CC(=O)O)NC(=O)[C@H](CC(C)C)NC(=O)C(C)(C)NC(=O)[C@@H](NC(=O)[C@H](CO)NC(=O)[C@H](Cc1ccc(O)cc1)NC(=O)[C@H](CC(=O)O)NC(=O)[C@H](CO)NC(=O)[C@@H](NC(=O)[C@H](Cc1ccccc1)NC(=O)[C@@H](NC(=O)CNC(=O)[C@H](CCC(=O)O)NC(=O)C(C)(C)NC(=O)[C@@H](N)Cc1ccc(O)cc1)[C@@H](C)O)[C@@H](C)O)[C@@H](C)CC)[C@@H](C)CC)C(C)C)C(=O)N[C@@H](C)C(=O)NCC(=O)NCC(=O)N1CCC[C@H]1C(=O)N[C@@H](CO)C(=O)N[C@@H](CO)C(=O)NCC(=O)N[C@@H](C)C(=O)N1CCC[C@H]1C(=O)N1CCC[C@H]1C(=O)N1CCC[C@H]1C(=O)N[C@@H](CO)C(N)=O
Tmax (human, plasma; sc, 5.0 mg once weekly, week 7, median): 24 h

CC(C)(C(=O)O)c1ccc(C(O)CCCN2CCC(C(O)(c3ccccc3)c3ccccc3)CC2)cc1 (centres unmarked)
IC50 (Marburg virus; HIV/MARV pseudovirion entry; A549; 48 h): > 100 µM

COc1cc2c(OCCCN3CCOCC3)c3c(c(-c4ccc5c(c4)OCO5)c2cc1OC)C(=O)OC3
IC50 (VSV pseudotyped with Ebola virus GP; viral entry, measured: GFP): 0.107 ± 0.0237 µM

A few entries again:
oseltamivir carboxylate
IC50 (Influenza A virus; enzyme activity, inhibitor; avian A(H9N2); median over viruses): 0.00049 ± 8e-05 µM

O=C1Nc2ccccc2/C1=C1\Nc2ccccc2\C1=N/O
IC50 (SARS-CoV-2 Delta; viral replication, cell-based): 9.99 µM

COC(=O)[C@@H](N)COP1(=O)CO[C@@H](Cn2cnc3c(N)ncnc32)CO1 (some centres unmarked)
IC50 (cowpox virus; viral replication): 20 µM

COc1cc2c(OCCCN3CCOCC3)c3c(c(-c4ccc5c(c4)OCO5)c2cc1OC)C(=O)OC3
IC50 (VSV pseudotyped with Ebola virus GP; viral entry, measured: GFP): 0.107 ± 0.0237 µM
